Measurements pooled from the literature.
Every numbered part comes from another study and shows a few of its results, in no order. Changes are numbered by the printed parent chain.

Sample 1
Target: CCNF, cyclin fold, Cln2 fusion (human)
Method: yeast growth competition, sequencing
Sample: yeast
Notes: strong parent motif
Baseline: not given
Reading: higher = stronger binding
Parent: BRCA2 docking peptide (human); PSIKRNLLNEFDR
Substitution	normalised enrichment score
N9S	3.61
R13L	2.99
L7E	0.618
L7G	0.49
K4V	2.58
I3G	1.75
R13A	3.43
R13Q	2.61
R13G	2.54
K4M	1.77
F11L	1.44
L7I	1.51
R13C	1.59
F11R	0.962
F11H	0.765
P1A	3.06
E10F	2.61

Sample 2
Target: DDIT3, bZIP domain (human)
Method: DHFR protein complementation
Sample: yeast
Notes: single substitutions, most at no-binding floor
Baseline: wild-type JUN-FOS pair
Reading: higher = stronger binding
Parent: JUN, bZIP domain (human); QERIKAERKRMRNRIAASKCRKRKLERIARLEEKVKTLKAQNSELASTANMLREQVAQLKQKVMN; partner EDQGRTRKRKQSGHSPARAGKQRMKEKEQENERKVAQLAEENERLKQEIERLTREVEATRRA
Substitution	binding fitness
M51P	-1.35 natural log
E32N	-0.383 natural log
A57P	-1.29 natural log
E32M	-0.291 natural log
E32K	-0.181 natural log
A49E	-0.53 natural log
M51K	0.111 natural log
A57L	-0.11 natural log
Q41L	-0.0266 natural log
L45Q	-0.939 natural log
L45A	-1.08 natural log
S43G	-0.00573 natural log
L45K	-1.4 natural log
K36W	-0.328 natural log
A49K	-0.425 natural log
K34C	-0.041 natural log

Sample 3
Target: RNA binding protein fox-1 homolog 2, RRM domain, GST-SBP tag (RBFOX2, Homo sapiens, UniProt O43251-10, residues 100-194)
Method: RNA Bind-n-Seq
Form: RNA
Sample: in vitro
Tested at: 365 nM
Notes: natural RNA segment, single round, ends assumed
Baseline: no-protein control
Reading: higher = stronger binding
Shared flanks, not repeated: GGGAGUUCUACAGUCCGACGAUC … UGGAAUUCUCGGGUGCCAA
Residues (chain): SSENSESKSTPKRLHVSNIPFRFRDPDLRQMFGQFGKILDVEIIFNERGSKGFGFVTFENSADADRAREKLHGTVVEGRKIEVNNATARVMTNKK
Strand	RBNS enrichment (R)
ACAGCCUGGCAGCCUGGCCCUCCUGGUGCCCACUCCCGCCAGCCCCUGCCUCGAGGACUGAUACUGCAGUGACUGCCGUCAGCUCCGACUGCCGCUGAGAAGGGUUGAUC	0.7
GUCCAAGGAACCAAAGGAGGCUCUCGGAGAUGCCCCCAAACGUCCCAAAGUACACAGAGCUAAGUAAUCAAUUGCUACACUUAUUGCACAGCUAGACACGGAUUUCAAGU	0.63
UUGGCUCAGAUUUAUUCUUAAUUGGAUGUUUAAAGCAUGUACUACCUUGUUACAGUUGGUUUAGUGUAGUGGAUUAUUGACAUGACAUCAUGAGAAGAUGUGUAAUUUUA	9.41
GGCAGGUGGGUGGCACAGCAUAAGAACCCAGCUGGGGCCAGCCCUCCCUGUCCUGGCUGGUCAGUGUGCCCCCACCCACACUGUCCAGCCCCUUAGCCCAUGUCAUGUCA	1.25
CUAACUCCUAACUAACCAGCUCGCAGUGCGCUGCAGCCUUCCUUUUACCUUCAGCUGUCUCAGGAAGACCUUGCUGUCCCAGAGUGUACUGAGAGCAUCACUAUCAGGCA	2.78
UCACUAAGCUGGCUGUGAAGAUUUUAAGUACAUUUCUGUGAAGACCUUAAAGUACUGUUCUUUAUUUAAUAAGAUACGCUACUACAUUGCUUUGUUUAUAAAUAGUUUAU	1.22
CUGUGCCAUACUAUUGUUAAAAUGAACUGUUGCUAUUGUGAGAUGGAUUUCCUUUCGAAUGGCACUACCUUAGGGACAUUCUAGUAUUGCUUCUAUUGUUUGGGCAUUGU	0.231
GACAGCUUUGUGAGUUAUUAUUGAAAAAUGAGGAUUCCAAGAGUCAGAGGAGUUUGAUAAUGUGCACGAGGGCACACUGCUAGUAAAUAACAUUAAAAUAACUGGAAUGA	5.79
GAGGCUUGUUUUGUUGUCUGUGUCUGUCUGAAUAACCUGCGUGUCUAAAACCACGUGAAAUGUGAAUGAUUAUUGGCAAUAUUACCUUGACAGAAUCAUGGGACUUUGAG	0.551
CGCAAGUGUAUCUGUUAGUACACUCUGCAAGAGGACUGGACUGCUGGCCUAGGUAUAUGGAUCUCACGCCUCUUGGGGAGACAGAUUGCAAAAAUGGGUUCCCUGCAUGU	11.6
CACUCCCAGCGAUGCUACCCAGAACCCCAACGGCAUGAAUCCUGCACAGUGCCGGGCAGUGCCAGACUCCAAAGGGCUCGCUGUGGGGACAGCCCCGCCAUGGCCACAGA	0.805
UUCCUUCAUGCCGCCAUGUUCCUGAUAUUAGUUCUGAUUUCUUUUUAACAAAUGUUAUCAUGAUUAAGAAAAUUUCCAGCACUUUAAUGGCCAAUUAACUGAGAAUGUAA	0.874

Sample 4
Target: Ras GTPase-activating protein-binding protein 1, full length (G3BP1, Homo sapiens, UniProt Q13283)
Chain of UniProt Q13283 (whole entry, looked up): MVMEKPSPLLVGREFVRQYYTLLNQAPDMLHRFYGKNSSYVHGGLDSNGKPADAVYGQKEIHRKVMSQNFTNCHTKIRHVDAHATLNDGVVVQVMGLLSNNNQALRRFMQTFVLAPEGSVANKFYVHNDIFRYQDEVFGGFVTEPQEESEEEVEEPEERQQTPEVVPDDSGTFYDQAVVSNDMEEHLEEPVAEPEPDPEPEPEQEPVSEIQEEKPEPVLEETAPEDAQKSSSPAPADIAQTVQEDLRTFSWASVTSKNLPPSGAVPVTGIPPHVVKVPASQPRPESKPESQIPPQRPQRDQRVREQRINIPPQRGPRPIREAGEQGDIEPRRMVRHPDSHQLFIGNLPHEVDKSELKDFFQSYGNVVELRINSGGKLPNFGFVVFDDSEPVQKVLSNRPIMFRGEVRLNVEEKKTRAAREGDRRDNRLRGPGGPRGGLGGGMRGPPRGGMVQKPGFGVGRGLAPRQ
Method: RNA Bind-n-Seq
Form: RNA
Sample: in vitro
Tested at: 200 nM
Notes: whole 134-nt RNA, ends assumed
Added: 150 mM KCl
Baseline: input library
Reading: higher = stronger binding
Shared flanks, not repeated: GGGAGUUCUACAGUCCGACGAUC … UGGAAUUCUCGGGUGUCAAGG
Strand	log2 enrichment
UCAAGUCCUGUGCUACACAUCGUAUGUACCGAAUCGGAAAGGGAAAGGGAAAGGGAAAGUAUUAUGUUACGCCGUUCGGAUCUGCACUUC	-0.742
CCUCAAGUCCUGUGCUACACAUCGUAUGUACCGAAUCGGCCGGCCGGGGCCGGAAAGUAUUAUGUUACGCCGUUCGGAUCUGCACUUCCA	-0.0729
UAACUUUAGAGGAGGAUCUGCUGGAUAUGGCAGUGGACGUGGAUUUGGGGAUGGCUAUAAUGGGUAUGGAGGAGGACCUGGAGGUGGCAA	0.285
AAGUCCUGUGCUACACAUCGUAUGUACCGAAUCGGCCCCGGGGCCCCGGGCCCCGGGAAAGUAUUAUGUUACGCCGUUCGGAUCUGCACU	-1.35
CCUCAAGUCCUGUGCUACACAUCGUAUGUACCGAAUCGGAAAAAGGAGGAGGAAAGUAUUAUGUUACGCCGUUCGGAUCUGCACUUCCAG	-0.103
CACAGACAACACGCACCCACACAGACACAGAGGGAAGGGGUUGGUAUGGGGACAGGGUGCACAGCAGGGCGGGGUAGGACCCCAGCCCCU	1.87
UGGGAGGUGGAUUUUGUUUAUUUUUUUAGCUCAUUUCCAGGGGUGGGAAUUUUUUUUUAAUAUGUGUCAUGAAUAAAGUUGUUUUUGGAA	0.562
CUCAAGUCCUGUGCUACACAUCGUAUGUACCGAAUCGGGGAAGGGAAGGAAGGAAAGUAUUAUGUUACGCCGUUCGGAUCUGCACUUCCA	-0.0981
UCAAGUCCUGUGCUACACAUCGUAUGUACCGAAUCGGGGAGGGGAGGGGUGGGGAAAGUAUUAUGUUACGCCGUUCGGAUCUGCACUUCC	1.38
AGUCCUGUGCUACACAUCGUAUGUACCGAAUCAAACCCCCAAACCCCCAAACCCAAAAAAGUAUUAUGUUACGCCGUUCGGAUCUGCACU	-0.444
CCUCAAGUCCUGUGCUACACAUCGUAUGUACCGAAUCGGAAAGGAGGAAAGGAAAGUAUUAUGUUACGCCGUUCGGAUCUGCACUUCCAG	-0.0438
AAGUCCUGUGCUACACAUCGUAUGUACCGAAUCAAACCCAAAUUUUUAAACCCAAAAAAGUAUUAUGUUACGCCGUUCGGAUCUGCACUU	-0.603
UCCUGUGCUACACAUCGUAUGUACCGAAUCAAAUUUUUAAAUUUUUUUAAAUUUUUAAAAAAGUAUUAUGUUACGCCGUUCGGAUCUGCA	-0.624
UCAAGUCCUGUGCUACACAUCGUAUGUACCGAAUCGGGAAAGGGAAAGGGAAAGGAAAGUAUUAUGUUACGCCGUUCGGAUCUGCACUUC	-0.701

Sample 5
Target: ABI1, truncated, D143A, DHFR fusion (Arabidopsis thaliana)
Method: DHFR PCA, deep sequencing
Sample: yeast
Notes: methotrexate growth selection, single substitutions
Added: (+)-ABA 200 µM
Baseline: wild-type fitted maximum
Reading: higher = stronger binding
Parent: PYL1, truncated, DHFR fusion (Arabidopsis thaliana); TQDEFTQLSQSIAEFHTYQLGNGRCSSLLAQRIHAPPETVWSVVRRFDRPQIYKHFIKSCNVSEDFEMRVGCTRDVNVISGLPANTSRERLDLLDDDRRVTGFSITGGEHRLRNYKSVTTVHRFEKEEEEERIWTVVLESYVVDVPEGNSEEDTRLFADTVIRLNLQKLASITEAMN; partner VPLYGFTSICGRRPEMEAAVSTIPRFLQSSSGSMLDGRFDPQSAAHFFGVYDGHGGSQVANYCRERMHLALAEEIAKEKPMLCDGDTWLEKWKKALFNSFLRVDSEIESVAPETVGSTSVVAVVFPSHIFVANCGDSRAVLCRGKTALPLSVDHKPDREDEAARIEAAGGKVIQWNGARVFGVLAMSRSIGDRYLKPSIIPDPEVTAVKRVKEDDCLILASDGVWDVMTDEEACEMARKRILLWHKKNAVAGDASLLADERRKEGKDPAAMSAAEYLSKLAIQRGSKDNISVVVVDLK
Substitution	relative binding score [%]
L93G	32.2
A158D	9.04
N61D	98.1
A170Q	94.6
V43E	19.5
V137R	-6.67
S117F	-11.8
V143W	-9.3
R90E	82.3
E131V	107
N149T	78.8
T135D	-4.57
A175E	102

Excerpt of the above (sample 2):
Substitution	binding fitness
L45Q	-0.939 natural log
L45A	-1.08 natural log
S43G	-0.00573 natural log
L45K	-1.4 natural log
